Published values from different studies.
Compare with care: the assays were run in different laboratories. ± gives the spread as reported.

CCCC[C@H](NC(=O)CCCCCCCNC(=O)c1ccc(NN)nc1)C(=O)N[C@H]1CC(=O)NCCCC[C@@H](C(N)=O)NC(=O)[C@H](Cc2c[nH]c3ccccc23)NC(=O)[C@H](CCCNC(=N)N)NC(=O)[C@@H](Cc2ccccc2)NC(=O)[C@H](Cc2c[nH]cn2)NC1=O [technetium-99m labelled]  uptake (C57 mouse, B16/F1 melanoma, spleen; intravenous, 4 h): 0.32 ± 0.13 %ID/g
CCCC[C@H](NC(=O)CNC(=O)CNC(=O)c1ccc(NN)nc1)C(=O)N[C@H]1CC(=O)NCCCC[C@@H](C(N)=O)NC(=O)[C@H](Cc2c[nH]c3ccccc23)NC(=O)[C@H](CCCNC(=N)N)NC(=O)[C@@H](Cc2ccccc2)NC(=O)[C@H](Cc2c[nH]cn2)NC1=O [technetium-99m labelled]  uptake (C57 mouse, B16/F1 melanoma, liver; 2 h, together with: NDP-MSH 6.07 nmol blockade): 0.52 ± 0.07 %ID/g
CC(C)C[C@H](NC(=O)[C@@H]1CCCN1C(=O)[C@H](CCCCN)NC(=O)[C@@H](N)CO)C(=O)N1CCC[C@H]1C(=O)N[C@@H](CCC(=O)O)C(=O)N[C@H](C(=O)N[C@H](C(=O)N[C@@H](CC(=O)O)C(=O)N[C@@H](CCC(=O)O)C(=O)N[C@@H](Cc1ccc(O)cc1)C(=O)N[C@@H](Cc1cn(CCOCCOCCOCCNC(=O)CCc2ccc(O)c(CN(CCN(CC(=O)O)Cc3cc(CCC(=O)NCCCC[C@H](NC(=O)N[C@@H](CCC(=O)O)C(=O)O)C(=O)O)ccc3O)CC(=O)O)c2)nn1)C(=O)O)[C@@H](C)O)C(C)C [gallium-68 labelled]  standardized uptake value (NMRI nu/nu mice, LNCaP tumour, skin; 135.34 nmol/kg, low molar activity): 0.09 g/g
N=C(N)NCCC[C@@H]1NC(=O)[C@H](CCCCNC(=O)CC[C@H](NC(=O)CCOCCOCCOCCOCCNC(=O)CC[C@H](NC(=O)CN2CCN(CC(=O)O)CCN(CC(=O)O)CCN(CC(=O)O)CC2)C(=O)NCCOCCOCCOCCOCCC(=O)N[C@@H](CCC(=O)NCCCC[C@@H]2NC(=O)[C@@H](Cc3ccccc3)NC(=O)[C@H](CC(=O)O)NC(=O)CNC(=O)[C@H](CCCNC(=N)N)NC2=O)C(=O)NCCCC[C@@H]2NC(=O)[C@@H](Cc3ccccc3)NC(=O)[C@H](CC(=O)O)NC(=O)CNC(=O)[C@H](CCCNC(=N)N)NC2=O)C(=O)NCCCC[C@@H]2NC(=O)[C@@H](Cc3ccccc3)NC(=O)[C@H](CC(=O)O)NC(=O)CNC(=O)[C@H](CCCNC(=N)N)NC2=O)NC(=O)[C@@H](Cc2ccccc2)NC(=O)[C@H](CC(=O)O)NC(=O)CNC1=O [indium-111 labelled]  tumour to tissue ratio (athymic nude mice, female, U-87 MG glioma xenograft, tumour and liver; intravenous, 4 h; baseline: tumour over liver): 2.93 ± 1.82
CC(C)C[C@@H]1NC(=O)[C@H](C(C)C)NC(=O)[C@H](CO)NC(=O)CNC(=O)CNC(=O)[C@H](CCCNC(=N)N)NC(=O)[C@@H]2CCCN2C(=O)[C@@H](NC(=O)CC[C@H](NC(=O)c2ccc(N(C)Cc3cnc4nc(N)nc(N)c4n3)cc2)C(=O)O)C(C)(C)SSC[C@@H](C(=O)O)NC(=O)CNC(=O)[C@H]([C@@H](C)O)NC(=O)[C@H](C(C)C)NC1=O  degradation rate constant (HPLC; Carbonate buffer; pH 10.0, 70 °C): 0.023 h⁻¹
N=C(N)NCCC[C@@H]1NC(=O)[C@H](CCCCNC(=O)CC[C@H](NC(=O)CCOCCOCCOCCOCCNC(=O)CN2CCN(CC(=O)O)CCN(CC(=O)O)CCN(CC(=O)O)CC2)C(=O)NCCCC[C@@H]2NC(=O)[C@@H](Cc3ccccc3)NC(=O)[C@H](CC(=O)O)NC(=O)CNC(=O)[C@H](CCCNC(=N)N)NC2=O)NC(=O)[C@@H](Cc2ccccc2)NC(=O)[C@H](CC(=O)O)NC(=O)CNC1=O [indium-111 labelled]  tissue uptake (female athymic nude mice, intestine; intravenous, 3 µCi, 4 h, U-87 MG glioma xenograft): 5.88 ± 2.42 %ID/g
CC(C)C[C@H](NC(=O)[C@H](C)N)C(=O)N[C@@H](CC(C)C)C(=O)N[C@@H](C)C(=O)N[C@@H](CC(N)=O)C(=O)N[C@@H](Cc1c[nH]cn1)C(=O)N[C@@H](CCC(=O)O)C(=O)N[C@@H](CCC(=O)O)C(=O)N[C@@H](CC(C)C)C(=O)N[C@@H](Cc1ccccc1)C(=O)N[C@@H](CCC(N)=O)C(=O)N[C@H](C(=O)NCC(=O)NCC(=O)NCC(=O)N[C@@H](CO)C(=O)N[C@@H](CSC1CC(=O)N(CCNC(=O)CCCCCN2C(=CC=C3CCCC(C=CC4=[N+](CCCCS(=O)(=O)[O-])c5ccc(S(=O)(=O)O)cc5C4(C)C)=C3Oc3ccc(S(=O)(=O)O)cc3)C(C)(C)c3cc(S(=O)(=O)O)ccc32)C1=O)C(=O)O)[C@@H](C)O (stereo partly shown)  time to signal clearance (photoacoustic imaging; mouse Hep3B orthotopic xenograft; intravenous, 150 µM): ~24 h
N=C(N)NCCC[C@@H]1NC(=O)[C@H](CCCCNC(=O)CCOCCOCCOCCOCCNC(=O)CN2CCN(CC(=O)O)CCN(CC(=O)O)CCN(CC(=O)O)CC2)NC(=O)[C@@H](Cc2ccccc2)NC(=O)[C@H](CC(=O)O)NC(=O)CNC1=O [indium-111 labelled]  tumour to tissue ratio (athymic nude mice, female, U-87 MG glioma xenograft, tumour and kidney; intravenous, 4 h; baseline: tumour over kidney): 0.93 ± 0.2
CSCC[C@H](NC(=O)[C@H](CC(C)C)NC(=O)[C@H](Cc1c[nH]cn1)NC(=O)CNC(=O)[C@@H](NC(=O)[C@H](C)NC(=O)[C@H](Cc1c[nH]c2ccccc12)NC(=O)[C@H](CCC(N)=O)NC(=O)[C@H](CC(N)=O)NC(=O)CNC(=O)[C@H](Cc1ccc(O)cc1)NC(=O)[C@H](CCCNC(=N)N)NC(=O)[C@H](CCC(N)=O)NC(=O)[C@@H]1CCCN1C(=O)CN1CCN(CC(=O)O)CCN(CC(=O)O)CCN(CC(=O)O)CC1)C(C)C)C(N)=O [indium-111 labelled]  intact peptide (radio-HPLC; male Swiss nu/nu mice, blood; intravenous, 1 nmol, 15 min): 3.4 ± 1.3%
CSCC[C@H](NC(=O)[C@H](CC(C)C)NC(=O)[C@H](Cc1c[nH]cn1)NC(=O)CNC(=O)[C@@H](NC(=O)[C@H](C)NC(=O)[C@H](Cc1c[nH]c2ccccc12)NC(=O)[C@H](CCC(N)=O)NC(=O)CCCCCNC(=O)CNC(=O)CNC(=O)CNC(=O)CSC(C)=O)C(C)C)C(N)=O [technetium-99m labelled]  tissue uptake (Swiss mouse, muscle; intravenous, 18.5 MBq, 240 min): 0.06 ± 0.02 %ID/g

Repeated from above:
CC(C)C[C@H](NC(=O)[C@@H]1CCCN1C(=O)[C@H](CCCCN)NC(=O)[C@@H](N)CO)C(=O)N1CCC[C@H]1C(=O)N[C@@H](CCC(=O)O)C(=O)N[C@H](C(=O)N[C@H](C(=O)N[C@@H](CC(=O)O)C(=O)N[C@@H](CCC(=O)O)C(=O)N[C@@H](Cc1ccc(O)cc1)C(=O)N[C@@H](Cc1cn(CCOCCOCCOCCNC(=O)CCc2ccc(O)c(CN(CCN(CC(=O)O)Cc3cc(CCC(=O)NCCCC[C@H](NC(=O)N[C@@H](CCC(=O)O)C(=O)O)C(=O)O)ccc3O)CC(=O)O)c2)nn1)C(=O)O)[C@@H](C)O)C(C)C [gallium-68 labelled]  standardized uptake value (NMRI nu/nu mice, LNCaP tumour, skin; 135.34 nmol/kg, low molar activity): 0.09 g/g
CCCC[C@H](NC(=O)CCCCCCCNC(=O)c1ccc(NN)nc1)C(=O)N[C@H]1CC(=O)NCCCC[C@@H](C(N)=O)NC(=O)[C@H](Cc2c[nH]c3ccccc23)NC(=O)[C@H](CCCNC(=N)N)NC(=O)[C@@H](Cc2ccccc2)NC(=O)[C@H](Cc2c[nH]cn2)NC1=O [technetium-99m labelled]  uptake (C57 mouse, B16/F1 melanoma, spleen; intravenous, 4 h): 0.32 ± 0.13 %ID/g
